{"data": "Experimental data gathered from unrelated publications", "note": "Lines come from different studies, so protocols differ. Several values in a cell are separate wells, animals, samples, runs or records. ± gives the spread as reported.", "sequence of UniProt P51575 (whole entry, unmodified, looked up)": "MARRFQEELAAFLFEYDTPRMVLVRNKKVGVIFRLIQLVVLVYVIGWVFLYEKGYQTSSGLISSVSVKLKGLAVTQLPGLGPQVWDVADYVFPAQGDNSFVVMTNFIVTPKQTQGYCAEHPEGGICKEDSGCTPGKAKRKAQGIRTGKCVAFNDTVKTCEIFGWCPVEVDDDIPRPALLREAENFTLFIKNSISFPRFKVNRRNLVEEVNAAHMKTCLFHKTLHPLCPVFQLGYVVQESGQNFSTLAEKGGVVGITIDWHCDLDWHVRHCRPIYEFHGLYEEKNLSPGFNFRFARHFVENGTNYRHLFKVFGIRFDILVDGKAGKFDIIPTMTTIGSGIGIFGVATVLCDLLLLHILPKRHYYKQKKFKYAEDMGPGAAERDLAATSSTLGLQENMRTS"}
{"Compound": "Cn1cc([C@H]2C[C@H]3CSC(N)=N[C@@]3(c3ccc(F)cc3F)CO2)cn1", "system": "male 129/SVE mouse, brain", "conditions": "subcutaneous, 10 mg/kg, 3 h", "quantity": "brain concentration", "result": "1090 nM"}
{"Compound": "CC(C)c1nc(N(C)S(C)(=O)=O)nc(-c2ccc(F)cc2)c1/C=C/[C@@H](O)C[C@@H](O)CC(=O)O", "system": "human", "conditions": "oral, 10 mg, compound alone", "quantity": "participants with TEAE muscle spasms", "result": "0%"}
{"Compound": "Cn1nc([N+](=O)[O-])nc1Oc1ccccc1C(=O)N1CCOCC1", "system": "aqueous buffer", "conditions": "pH 7.4", "quantity": "thermodynamic solubility", "result": "4.93 mM"}
{"Compound": "O=C(O)CC[C@H](NC(=O)N[C@@H](CCCCNC(=O)[C@H](Cc1ccc2ccccc2c1)NC(=O)CCCCCNC(=O)CN1CCN(CC(=O)O)CCN(CC(=O)O)CCN(CC(=O)O)CC1)C(=O)O)C(=O)O [gallium-68 labelled]", "test": "PET/CT", "system": "mouse, 22Rv1 xenograft, muscle", "conditions": "intravenous, 3.7 MBq, 4 h", "quantity": "SUVmean", "result": "0.08 ± 0.01 SUV"}
{"Compound": "CC[C@H](CO)N(CCN(N=O)[C@H](CC)CO)N=O", "target or system": "Salmonella typhimurium", "test": "plate incorporation", "system": "TA1535, water", "conditions": "500 µg/plate, without S9 test 2", "quantity": "revertant colonies per plate", "result": "18.3 ± 7"}
{"Compound": "CNc1ccc(-c2nc3ccc(O)cc3s2)cc1 [carbon-11 labelled]", "test": "ex vivo biodistribution", "system": "B6SJL mouse, normal, eyes", "conditions": "intravenous, 30 min", "quantity": "SUV", "result": "1.89 ± 1.53"}
{"Compound": "Cn1cc(Nc2nccc(-c3ccc4c(c3)CN(C3COC3)CC[C@H]4NC(=O)c3cn(C(C)(C)C)nn3)n2)cn1", "system": "human, whole blood", "conditions": "150 mg twice daily, day 7", "how to read": "baseline: pre-dose baseline", "quantity": "B cell count change", "result": "38.9%"}
{"Compound": "COc1cnc2cccc(N3CCc4c(cc(Cn5ccnc5C)cc4-c4cn(C)nc4C(F)(F)F)C3=O)c2c1", "target or system": "SCC-9", "test": "cell growth, inhibitor", "conditions": "120 h", "quantity": "EC50", "result": "0.114 µM"}
{"Compound": "Cc1ccc(Sc2ccccc2N2CCNCC2)c(C)c1", "test": "measured: protein in urine", "system": "healthy adult men", "conditions": "oral, 20 mg daily, 12 days", "quantity": "participants with TEAE", "result": "16.7%"}
{"Compound": "COc1ccnc(C(=O)N[C@@H](CO)C(=O)O[C@@H](C)[C@H](O)[C@@H](Cc2ccccc2)C(=O)O)c1O", "system": "bovine fat", "conditions": "-18 °C", "quantity": "storage stability", "result": "3 months"}
{"Compound": "C=CC(=O)Nc1cc(Nc2nccc(-c3cn(C)c4ccccc34)n2)c(OC)cc1N(C)CCN(C)C", "test": "storage stability", "system": "human dried blood spots", "conditions": "72 h, -80 °C, medium QC level", "quantity": "recovery", "result": "90.1%"}
{"Compound": "Nc1ncnc2c1ncn2[C@@H]1O[C@H](COP(=O)(O)CP(=O)(O)OP(=O)(O)O)[C@@H](O)[C@H]1O", "target or system": "P2X purinoceptor 1 (P2RX1, Homo sapiens, UniProt P51575, M214A)", "test": "saturation binding", "system": "HEK293", "conditions": "13 nM", "quantity": "specific binding", "result": "150 CCPM and 97.5 CCPM and 254 CCPM"}
{"Compound": "CNCc1ccc(-c2[nH]c3cc(F)cc4c3c2CCNC4=O)cc1", "test": "measured: Dizziness", "system": "human patients", "conditions": "oral, 600 mg twice daily, grade 3", "quantity": "patients with adverse event", "result": "0%"}
{"Compound": "Cc1cc(Nc2ccc(S(F)(F)(F)(F)F)cc2)n2nc(C(C)(F)F)nc2n1", "target or system": "Plasmodium falciparum", "test": "12-lead ECG", "system": "malaria patients", "conditions": "oral, 400 mg, increase above 60 ms", "quantity": "patients with QTcF increase", "result": "0%"}
{"Compound": "Cc1cc(C(=O)NC(C)(C)COc2cccc3c2C(N)=NS(=O)(=O)N3)cc(C)n1", "target or system": "human peripheral blood lymphocytes", "test": "CBPI, preliminary test", "conditions": "60 µg/mL, 24 h", "how to read": "baseline: vehicle control", "quantity": "cytotoxicity", "result": "6%"}
{"Compound": "Cc1c(-c2ccc(N3CCc4cccc(C(=O)Nc5nc6ccccc6s5)c4C3)nc2C(=O)O)cnn1CC12CC3(C)CC(C)(C1)CC(OCCNCC[C@H](O)CO)(C3)C2", "system": "beagle dog, male, anaesthetised", "conditions": "intravenous infusion, 0.01 mg/kg/min, 60 min", "how to read": "baseline: baseline", "quantity": "mean arterial pressure change", "result": "-1 mmHg"}
{"Compound": "COc1cc(-c2[o+]c3cc(O)cc(O)c3cc2O[C@@H]2O[C@H](CO)[C@@H](O)[C@H](O)[C@H]2O)cc(O)c1O", "test": "CIELAB from visible spectra", "system": "aqueous buffer", "conditions": "50 µM, pH 7, ±BSA 600 µM or lysozyme 1000 µM", "quantity": "hue angle", "result": "347.72 ± 0.31 degrees"}
{"Compound": "Cc1ccc(C(=O)N(CCCN)C(c2nc3snc(C)c3c(=O)n2Cc2ccccc2)C(C)C)cc1 (stereo not drawn)", "system": "human patients", "conditions": "intravenous, 4 mg/day", "quantity": "grade ≥3 fatigue patients", "result": "0%"}
{"Compound": "NC1(C(=O)N[C@@H](CCO)c2ccc(Cl)cc2)CCN(c2nc[nH]c3nccc2-3)CC1", "system": "metastatic CRPC patients", "conditions": "320 mg b.i.d., any grade, treatment-related, with: enzalutamide 160 mg daily", "quantity": "incidence of Hyper-glycaemia", "result": "66.7%"}
{"Compound": "Cc1cc(N)c2c(OCC(C)(C)C(=O)NC(C)C)cccc2n1", "target or system": "Salmonella typhimurium", "test": "reverse mutation, plate incorporation", "system": "TA98", "conditions": "1000 µg/plate, with rat liver S9", "quantity": "mean revertant colonies", "result": "18 colonies/plate"}
{"Compound": "C=CC(=O)Nc1cc(Nc2nccc(-c3cn(C)c4ccccc34)n2)c(OC)cc1N(C)CCN(C)C", "test": "measured: face oedema", "system": "EGFR-mutant MET-altered NSCLC patients", "conditions": "oral, dose not given, AE grade ≥3, all", "quantity": "incidence of treatment-related AEs", "result": "2%"}
{"Compound": "Cn1cc(-c2ccc(-c3cncc(Cl)c3N3CCC4(CCNC4=O)CC3)cc2)cn1", "target or system": "COLO 205", "test": "gene expression, microarray, measured: DRAM1 mRNA", "conditions": "concentration not given, 6 h", "how to read": "baseline: untreated cells", "quantity": "log2 fold change", "result": 3.04}
{"Compound": "Cc1ccc([C@@H]2O[C@H](CO)[C@@H](O)[C@H](O)[C@H]2O)cc1Cc1ccc(-c2ccc(F)cc2)s1", "system": "Japanese type 2 diabetes patients", "conditions": "100 mg, day 1, 24 h urine collection", "how to read": "baseline: baseline", "quantity": "urinary potassium excretion change", "result": "8.8 mEq"}
{"Compound": "O=C(COc1ccc(Cl)cc1)NC12CC(c3nnc([C@H]4C[C@@H](OC(F)(F)F)C4)o3)(C1)C2", "test": "measured: muscle spasms", "system": "human", "conditions": "oral, 260 mg once daily, 14 days", "quantity": "adverse event incidence", "result": "14.3%"}
{"Compound": "CCCCOc1ccc([C@H]2CC[C@H](CCC)CC2)c(F)c1F", "system": "rat, placenta", "conditions": "5000 ng/mL in perfusate, high dose, mixture of 21 LCMs", "quantity": "median placental accumulation", "result": "219 ng/g"}
{"Compound": "COc1ccc2c(c1)CN(C(=O)CCN1CCC(Cc3ccccc3)CC1)CC[S@@+]2[O-]", "test": "telemetry", "system": "conscious dog", "conditions": "intravenous, 8 mg/kg, 1 h", "quantity": "heart rate", "result": "123 ± 46 beats/min"}
{"Compound": "O=C(O)c1ccc(NCc2ccc([N+](=O)[O-])cc2)cc1", "target or system": "HGF", "test": "cell viability, resazurin", "conditions": "72 h, 10% FBS", "quantity": "IC50", "result": "> 100 µM"}
{"Compound": "CCn1cc(-c2cc(Cn3ccnc3)cc3c2CCN([C@H](c2cc(OC)ccn2)C2CC2)C3=O)c(C(F)(F)F)n1", "target or system": "SUIT-2", "test": "cell growth, inhibitor", "conditions": "120 h", "quantity": "EC50", "result": "> 30 µM"}
{"Compound": "Cc1cc(Nc2cc3ncccc3c(N[C@@H]3C[C@H]4CC[C@@H](C3)N4CCC#N)n2)n[nH]1", "system": "human, plasma", "conditions": "270 mg, day 1, geometric mean", "quantity": "AUC(0-4)", "result": "21.2 ng·h/mL"}
{"Compound": "CN1C(=O)[C@@H](NC(=O)c2nnc(Cc3ccccc3)[nH]2)COc2cccnc21", "test": "phase I single ascending dose", "system": "human, male and female", "conditions": "oral, 400 mg, fasted", "quantity": "participants with any TEAE", "result": "33.3%"}
